Measured values pooled from the literature.
Lines come from different studies, so protocols differ. Values joined by “and” are separate records of one study, mostly repeats; a detail may differ. Numbers after ± are the reported error.
Sequence of UniProt Q7L7X3 (whole entry, looked up): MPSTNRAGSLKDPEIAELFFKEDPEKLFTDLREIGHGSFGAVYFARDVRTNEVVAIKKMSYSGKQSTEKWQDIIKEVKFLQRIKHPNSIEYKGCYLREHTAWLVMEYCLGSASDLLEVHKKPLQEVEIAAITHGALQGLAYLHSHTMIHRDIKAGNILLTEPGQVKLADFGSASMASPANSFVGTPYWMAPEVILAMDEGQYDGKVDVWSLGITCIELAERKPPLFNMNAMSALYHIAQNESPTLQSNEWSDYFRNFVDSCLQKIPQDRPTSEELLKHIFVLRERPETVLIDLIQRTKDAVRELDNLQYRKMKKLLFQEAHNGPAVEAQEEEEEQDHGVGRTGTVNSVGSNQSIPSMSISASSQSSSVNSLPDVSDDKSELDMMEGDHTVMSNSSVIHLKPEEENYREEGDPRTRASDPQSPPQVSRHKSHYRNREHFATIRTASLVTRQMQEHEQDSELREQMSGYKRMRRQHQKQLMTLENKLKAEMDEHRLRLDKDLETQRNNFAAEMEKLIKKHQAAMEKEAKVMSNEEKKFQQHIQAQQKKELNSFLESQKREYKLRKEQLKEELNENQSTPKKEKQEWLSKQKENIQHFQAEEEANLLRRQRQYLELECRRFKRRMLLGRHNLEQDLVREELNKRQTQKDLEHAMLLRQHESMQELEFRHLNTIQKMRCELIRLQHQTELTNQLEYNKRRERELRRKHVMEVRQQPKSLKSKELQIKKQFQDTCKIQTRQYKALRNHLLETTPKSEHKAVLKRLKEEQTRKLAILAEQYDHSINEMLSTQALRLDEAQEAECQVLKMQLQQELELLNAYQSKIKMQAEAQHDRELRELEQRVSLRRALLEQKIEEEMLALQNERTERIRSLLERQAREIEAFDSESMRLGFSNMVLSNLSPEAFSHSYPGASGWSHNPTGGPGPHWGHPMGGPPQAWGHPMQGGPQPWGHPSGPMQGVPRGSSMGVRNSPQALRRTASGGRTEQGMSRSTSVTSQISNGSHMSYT

COC(=O)[C@H]1[C@@H](c2ccc(Cl)c(Cl)c2)C[C@@H]2CC[C@H]1N2CCCc1c2ccccc2cc2ccccc12  pKa (fluorometric titration; 1 µM, 10% DMSO): 5.8
CSCC[C@H](N)C(=O)N[C@@H](C)C(=O)N[C@@H](Cc1c[nH]c2ccccc12)C(=O)N[C@@H](Cc1c[nH]cn1)C(=O)N[C@@H](CC(=O)O)C(=O)N[C@@H](CC(=O)O)C(=O)N[C@@H](CCC(=O)O)C(=O)N[C@@H](CCC(=O)O)C(=O)N[C@@H](Cc1ccccc1)C(=O)N[C@@H](C)C(=O)N[C@@H](CCCNC(=N)N)C(=O)N[C@@H](CCCNC(=N)N)C(=O)N[C@@H](CCCNC(=N)N)C(=O)N[C@@H](CCCNC(=N)N)C(=O)NCCCCCC(=O)NCCCCC(NC(=O)CCCCCNC(=O)[C@H](CCCNC(=N)N)NC(=O)[C@H](CCCNC(=N)N)NC(=O)[C@H](CCCNC(=N)N)NC(=O)[C@H](CCCNC(=N)N)NC(=O)[C@H](C)NC(=O)[C@H](Cc1ccccc1)NC(=O)[C@H](CCC(=O)O)NC(=O)[C@H](CCC(=O)O)NC(=O)[C@H](CC(=O)O)NC(=O)[C@H](CC(=O)O)NC(=O)[C@H](Cc1c[nH]cn1)NC(=O)[C@H](Cc1c[nH]c2ccccc12)NC(=O)[C@H](C)NC(=O)[C@@H](N)CCSC)C(=O)NCCCCC(NC(=O)C(CCCCNC(=O)CCCCCNC(=O)[C@H](CCCNC(=N)N)NC(=O)[C@H](CCCNC(=N)N)NC(=O)[C@H](CCCNC(=N)N)NC(=O)[C@H](CCCNC(=N)N)NC(=O)[C@H](C)NC(=O)[C@H](Cc1ccccc1)NC(=O)[C@H](CCC(=O)O)NC(=O)[C@H](CCC(=O)O)NC(=O)[C@H](CC(=O)O)NC(=O)[C@H](CC(=O)O)NC(=O)[C@H](Cc1c[nH]cn1)NC(=O)[C@H](Cc1c[nH]c2ccccc12)NC(=O)[C@H](C)NC(=O)[C@@H](N)CCSC)NC(=O)CCCCCNC(=O)[C@H](CCCNC(=N)N)NC(=O)[C@H](CCCNC(=N)N)NC(=O)[C@H](CCCNC(=N)N)NC(=O)[C@H](CCCNC(=N)N)NC(=O)[C@H](C)NC(=O)[C@H](Cc1ccccc1)NC(=O)[C@H](CCC(=O)O)NC(=O)[C@H](CCC(=O)O)NC(=O)[C@H](CC(=O)O)NC(=O)[C@H](CC(=O)O)NC(=O)[C@H](Cc1c[nH]cn1)NC(=O)[C@H](Cc1c[nH]c2ccccc12)NC(=O)[C@H](C)NC(=O)[C@@H](N)CCSC)C(N)=O (stereo partly shown)  tissue distribution (C57BL/6 mouse female, stomach; dose not given, 3 h; reference: total): 34.9% and 36.9% and 34.5%
CS(C)(=O)=Nc1ccc(-c2ccc(-c3nc4cc(O[C@@H]5CO[C@H]6[C@@H]5OC[C@H]6O)[nH]c4cc3F)cc2)cc1  inhibition (TAOK1 (Homo sapiens, UniProt Q7L7X3); enzyme activity, inhibitor; 10 µM): 6%
COc1cnc2cccc(N3CCc4c(cc(Cn5ccnc5)cc4-c4cn(C)nc4C(F)(F)F)C3=O)c2c1  body weight (BALB/c nude mice, MV4-11 xenograft; intraperitoneal, 100 mg/kg, day 17): 23.5 g and 24.5 g and 22.2 g and 22.8 g
CCCCCCCCCCCCCCCC(=O)N[C@@H](CCC(=O)NCCCC[C@H](NC(=O)[C@H](CC(=O)O)NC(=O)[C@H](CO)NC(=O)[C@@H](NC(=O)[C@H](Cc1ccccc1)NC(=O)[C@@H](NC(=O)CNC(=O)[C@H](CCC(N)=O)NC(=O)[C@H](C)NC(=O)[C@@H](Cc1ccc(O)cc1)NC(C)=O)[C@@H](C)O)[C@@H](C)O)C(=O)N[C@@H](CO)C(=O)N[C@@H](CCCCN)C(=O)N[C@@H](Cc1ccc(O)cc1)C(=O)N[C@@H](CC(C)C)C(=O)N[C@@H](CC(=O)O)C(=O)N[C@@H](CCC(=O)O)C(=O)N[C@@H](CCCNC(=N)N)C(=O)N[C@@H](C)C(=O)N[C@@H](C)C(=O)N[C@@H](CCC(N)=O)C(=O)N[C@@H](CC(=O)O)C(=O)N[C@@H](Cc1ccccc1)C(=O)N[C@H](C(=O)N[C@@H](CCC(N)=O)C(=O)N[C@@H](Cc1c[nH]c2ccccc12)C(=O)N[C@@H](CC(C)C)C(=O)N[C@@H](CC(C)C)C(=O)N[C@@H](CCC(=O)O)C(=O)NCC(=O)NCC(=O)N1CCC[C@H]1C(=O)N[C@@H](CO)C(=O)N[C@@H](CO)C(=O)NCC(=O)N[C@@H](C)C(=O)N1CCC[C@H]1C(=O)N1CCC[C@H]1C(=O)N1CCC[C@H]1C(=O)N[C@@H](CO)C(N)=O)C(C)C)C(=O)O  AUC(0-last) (male cynomolgus monkey, plasma; subcutaneous, 0.0161 mg/kg): 2080 ng·h/mL
CCCC[C@H]1C(=O)N(C)[C@@H](CCCC)C(=O)N[C@@H](CCCNC(=O)CN2CCN(CC(=O)O)CCN(CC(=O)O)CCN(CC(=O)O)CC2)C(=O)N[C@H](C(=O)NCC(N)=O)CSCC(=O)N[C@@H](Cc2ccc(O)cc2)C(=O)N(C)[C@@H](C)C(=O)N[C@@H](CC(N)=O)C(=O)N2CCC[C@H]2C(=O)N[C@@H](Cc2c[nH]cn2)C(=O)N[C@@H](CC(C)C)C(=O)N(C)CC(=O)N[C@@H](Cc2c[nH]c3ccccc23)C(=O)N[C@@H](CO)C(=O)N[C@@H](Cc2c[nH]c3ccccc23)C(=O)N1C [gallium-68 labelled]  tissue uptake (NOD/SCID mice, CHO-hPD-L1 xenograft, liver; 60 min, with: blocking agent 50 µg co-injected): 16.6 ± 5.65 %ID/g
N#[11C]c1ccc(-c2csc(NN=C3CCCC3)n2)cc1  uptake in stomach with contents (C57BL/6 mouse, male; intravenous, 3 MBq, 15 min): 5.9 ± 0.75 %ID/g
COc1ccccc1-c1n[nH]c2nc(NC3CCN(C(=O)Cc4ccc(F)cc4F)CC3)ncc12  relative abundance (bead binding, competition bead pull-down, refers to: LINJ.22.0180; Leishmania donovani extract; 10 µM; reference: vehicle): 0.9
CC[C@H](C)[C@H](NC(=O)[C@H](CCCCN)NC(=O)CNC(=O)[C@H](CC(C)C)NC(=O)[C@H](Cc1ccccc1)NC(=O)[C@H](CCCCN)NC(=O)[C@H](CO)NC(=O)[C@H](Cc1ccccc1)NC(=O)[C@H](Cc1c[nH]c2ccccc12)NC(=O)[C@H](CCC(N)=O)NC(=O)[C@@H](NC(=O)[C@H](Cc1ccccc1)NC(=O)CCCCCNC(=O)CN1CCN(CC(=O)O)CCN(CC(=O)O)CCN(CC(=O)O)CC1)C(C)C)C(=O)N[C@@H](CCC(=O)O)C(=O)N1CCC[C@H]1C(=O)N[C@@H](CC(=O)O)C(=O)N[C@H](C(=O)N[C@@H](CO)C(=O)N[C@@H](CCC(N)=O)C(=O)N[C@H](C(=O)N[C@@H](CCC(N)=O)C(=O)N[C@@H](CC(=O)O)C(=O)N1CCC[C@H]1C(=O)N[C@@H](CC(N)=O)C(=O)N[C@@H](CC(=O)O)C(=O)N[C@@H](CCC(N)=O)C(=O)N[C@@H](Cc1ccc(O)cc1)C(=O)N[C@@H](CCC(=O)O)C(=O)N1CCC[C@H]1C(=O)N[C@@H](Cc1ccccc1)C(=O)O)C(C)C)C(C)C [copper-64 labelled]  tissue uptake (C57BL/6 mice, muscle; with: LPS 3 mg/kg intratracheal): 0.36 ± 0.04 %ID/g
CC[C@H](C)[C@H](NC(=O)[C@H](CCCCN)NC(=O)CNC(=O)[C@@H](NC(=O)[C@H](Cc1c[nH]cn1)NC(=O)[C@H](Cc1c[nH]cn1)NC(=O)[C@@H](NC(=O)CNC(=O)[C@H](Cc1c[nH]cn1)NC(=O)[C@H](Cc1ccccc1)NC(=O)[C@H](CC(C)C)NC(=O)[C@H](CC(C)C)NC(=O)[C@H](CCCNC(=N)N)NC(=O)[C@H](Cc1ccccc1)NC(=O)[C@@H](N)Cc1ccccc1)C(C)C)C(C)C)C(=O)N[C@@H](CCCCN)C(=O)N1CCC[C@H]1C(=O)N[C@@H](CCCNC(=N)N)C(=O)N[C@@H](C)C(N)=O  chronic toxic concentration (zebrafish embryos 28 hpf, E3 medium; 24 h): 25 µM
CCN(CC)CCOc1ccc(-c2nnn(Cc3ccc(OC)cc3)c2N)cc1  respiratory function (Sprague-Dawley rat; oral, up to 100 mg/kg): no effect
CN1Cc2cc(Cl)ccc2-n2c(nnc2C2CCN(c3cccc(F)n3)CC2)C1  AUC (male Sprague-Dawley rat, brain; intravenous, 0.03 mg/kg): 3.82 ng·h/mL
Cn1nc(NS(C)(=O)=O)c2c(Cl)ccc(-n3c([C@H](Cc4cc(F)cc(F)c4)NC(=O)Cn4nc(C(F)F)c5c4C(F)(F)[C@@H]4C[C@H]54)nc4nc(OCCC(F)(F)F)ccc4c3=O)c21  half-life (human, plasma; oral, 200 mg single dose, powder in bottle, geometric mean): 61.6 h
O=C1NC2(CC2)COc2ncc(F)cc2[C@H]2COCCN2c2ccn3ncc1c3n2  albumin/globulin ratio (Sprague-Dawley rat, female, serum; oral, 20 mg/kg/day, end of treatment, 4-week repeated-dose toxicity): 1.11 ± 0.35
CCCCCCCCCCCCCCCC(=O)N[C@@H](CCC(=O)NCCOCCOCCC(=O)NCCOCCOCCC(=O)NCCCC[C@H](NC(=O)[C@H](CC(=O)O)NC(=O)[C@H](CC(C)C)NC(=O)[C@H](Cc1ccc(O)cc1)NC(=O)[C@H](CCCCN)NC(=O)[C@H](CO)NC(=O)[C@H](Cc1ccc(O)cc1)NC(=O)[C@H](CC(=O)O)NC(=O)[C@H](CO)NC(=O)[C@@H](NC(=O)[C@H](Cc1ccccc1)NC(=O)[C@@H](NC(=O)CNC(=O)[C@H](CCC(N)=O)NC(=O)[C@@H](CO)NC(=O)[C@@H](N)Cc1c[nH]cn1)[C@@H](C)O)[C@@H](C)O)C(=O)N[C@@H](CCCNC(=N)N)C(=O)N[C@@H](CCCNC(=N)N)C(=O)N[C@@H](C)C(=O)N[C@@H](CCC(N)=O)C(=O)N[C@@H](CC(=O)O)C(=O)N[C@@H](Cc1ccccc1)C(=O)N[C@H](C(=O)N[C@@H](CCC(N)=O)C(=O)N[C@@H](Cc1c[nH]c2ccccc12)C(=O)N[C@@H](CC(C)C)C(=O)N[C@@H](CC(C)C)C(=O)N[C@@H](CC(N)=O)C(=O)N[C@H](C(=O)NCC(=O)NCC(=O)N1CCC[C@H]1C(=O)N[C@@H](CO)C(=O)N[C@@H](CO)C(=O)NCC(=O)N[C@@H](C)C(=O)N1CCC[C@H]1C(=O)N1CCC[C@H]1C(=O)N1CCC[C@H]1C(=O)N[C@@H](CO)C(N)=O)[C@@H](C)O)C(C)C)C(=O)O  Cmax (rhesus monkey, female, plasma; subcutaneous, 20 µg/kg, day 1, toxicokinetics, mean): 23.7 ng/mL
COC(=O)[C@@H](NC(=O)c1nn(Cc2ccc(F)cc2)c2cc(OCCCCNC(=N)N)ccc12)C(C)(C)C  Kp,uu, brain to plasma, unbound partition coefficient (mouse; intraperitoneal, 3 mg/kg, 0.5 h; reference: brain over plasma): 0.0012
CC(=O)NCCCC[C@@H]1NC(=O)[C@H](Cc2c[nH]c3c(C)cccc23)NC(=O)[C@H]([C@@H](C)O)NC(=O)[C@H](CC(N)=O)NC(=O)[C@@H](NC(C)=O)C(C)(C)SSC(C)(C)[C@@H](C(=O)N[C@@H](Cc2ccc(OCCN)cc2)C(=O)N[C@@H](Cc2ccc3ccccc3c2)C(=O)NC2(C(=O)N[C@@H](CCC(=O)O)C(=O)N[C@@H](CC(N)=O)C(=O)N[C@@H](Cc3cccnc3)C(=O)N(C)CC(N)=O)CCOCC2)NC1=O  unbound fraction (equilibrium dialysis; albumin plus glycoprotein; 0.01 µM, albumin 4%, glycoprotein 0.07%): 73.2 ± 1.7%
CN[C@H](CC(C)C)C(=O)N[C@H]1C(=O)N[C@@H](CC(N)=O)C(=O)N[C@H]2C(=O)N[C@H]3C(=O)N[C@H](C(=O)N[C@H](C(=O)O)c4cc(O)cc(O)c4-c4cc3ccc4O)[C@H](O)c3ccc(c(Cl)c3)Oc3cc2cc(c3O[C@@H]2O[C@H](CO)[C@@H](O)[C@H](O)[C@H]2O[C@H]2C[C@](C)(NCc3ccc(-c4ccc(Cl)cc4)cc3)[C@H](O)[C@H](C)O2)Oc2ccc(cc2Cl)[C@H]1O  clearance (mouse, plasma; intravenous, 75 mg/kg): 2.17 mL/min/kg
O=C(c1cc(Cc2n[nH]c(=O)c3ccccc23)ccc1F)N1CC(CNC2CC2)C1  tumour concentration (athymic nude mouse, sample A PDX, tumour; oral, 12.5 mg/kg, 24 h): > 100 ng/g

Excerpt of the above:
CCN(CC)CCOc1ccc(-c2nnn(Cc3ccc(OC)cc3)c2N)cc1  respiratory function (Sprague-Dawley rat; oral, up to 100 mg/kg): no effect
CN1Cc2cc(Cl)ccc2-n2c(nnc2C2CCN(c3cccc(F)n3)CC2)C1  AUC (male Sprague-Dawley rat, brain; intravenous, 0.03 mg/kg): 3.82 ng·h/mL
